Measurements gathered from unrelated publications.
Protocols differ between the studies behind these lines. Several values in a cell are separate wells, animals, samples, runs or records. ± gives the spread as reported.

Structure (SMILES) | target or system | assay | system | setting | scale | quantity | value
CC(C)C12OC1C1OC13C1(C)CCC4=C(COC4=O)C1CC1OC13C2OC(=O)CCC(=O)OC1OC(CO)C(O)C(O)C1O (stereo not shown) | SCC-25 | cell growth or viability, XTT | – | 47 h | – | IC50 | 1.26 µM
CCOc1ccccc1-n1c(CN2CCNCC2)nc2cc(I)ccc2c1=O | PANC-1 | cell growth or viability, ATP luminescence | – | 72 h | – | IC50 | 0.68 µM
Cc1cc(Oc2nc(N3CC[C@@H](c4ccncc4)C3)ncc2F)[nH]n1 | SK-BR-3 | cell growth or viability | – | – | – | IC50 | 60.3 µM
Cc1ccc(C2=CC(C)(C)Oc3ccc(-c4ccc(-c5ccc(C(=O)O)cc5)[nH]4)cc32)cc1 | human lung fibroblast | – | – | – | – | IC50 | 26.1 µM
CCC1(c2ccc(NC(=O)CCC(=O)OC3OC4OC5(C)CCC6C(C)CCC(C3C)C46OO5)cc2)CCC(=O)NC1=O (mixture of isomers) | DU-145 | cell growth or viability, CCK-8 | – | – | – | IC50 | > 50 µM
CC(=O)N[C@H](C(=O)N[C@@H](CCCNC(=N)N)C(=O)N[C@@H](CCCCN)C(=O)N[C@@H](CCCNC(=N)N)C(=O)N[C@H](C(=O)N[C@@H](CC(C)C)C(=O)N[C@@H](CCCNC(=N)N)C(=O)N[C@@]1(C)CCCC=CCCC[C@@](C)(C(=O)N[C@@H](CCCNC(=N)N)C(=O)N[C@@H](CCC(=O)O)C(=O)N[C@@H](CC(C)C)C(=O)N[C@H](C(=O)N[C@@H](CCC(=O)O)C(N)=O)C(C)C)NC(=O)[C@H](CCC(N)=O)NC(=O)[C@H](CC(C)C)NC(=O)[C@H](CC(C)C)NC1=O)[C@@H](C)O)C(C)C | H3255 (EGFR L858R) | cell viability, ATP luminescence | – | 18 h | – | IC50 | 2.54 ± 0.69 µM
COc1ccccc1-c1n[nH]c2nc(NC3CCN(C(=O)Cc4ccc(F)cc4F)CC3)ncc12 | – | bead binding, competition bead pull-down, measured: LINJ.35.0070 | Leishmania donovani extract | 10 µM | reference: vehicle | relative abundance | 1.14
O=C1NC2(CC2)COc2ncc(F)cc2[C@H]2COCCN2c2ccn3ncc1c3n2 | – | – | Sprague-Dawley rat, male, serum | oral, 20 mg/kg/day, end of recovery, 4-week subacute toxicity | – | serum total protein | 58.9 ± 4.8 g/L
CC(=O)N[C@H](C(=O)N[C@@H](CCCNC(=N)N)C(=O)N[C@@H](CCCCN)C(=O)N[C@@H](CCCNC(=N)N)C(=O)N[C@H](C(=O)N[C@@]1(C)CCCC=CCCC[C@@](C)(C(=O)N[C@@H](CCC(N)=O)C(=O)N[C@@H](CCC(=O)O)C(=O)N[C@@H](CCCNC(=N)N)C(=O)N[C@@H](CCC(=O)O)C(=O)N[C@@H](CC(C)C)C(=O)N[C@H](C(=O)N[C@@H](CCC(=O)O)C(N)=O)C(C)C)NC(=O)[C@H](CC(C)C)NC(=O)[C@H](CCCNC(=N)N)NC(=O)[C@H](CCCNC(=N)N)NC1=O)[C@@H](C)O)C(C)C | H3255 (EGFR L858R) | cell viability | – | 18 h, serum-free | – | IC50 | > 50 µM
Cc1cc(C(=O)Nc2nc3cccc(C)c3n2[C@H]2CCCCN(C(=O)/C=C/CN(C)C)C2)ccn1 | Trypanosoma brucei brucei | – | 2T1 CLK1 C215S overexpressing | 0.03086 µM, 72 h | – | survival | 106% and 112% and 95% and 97.3%
CC(C)(C)C(=O)OCOP(=O)(OCOC(=O)C(C)(C)C)C1CCCN(O)C1=O (stereo not shown) | SN12C | – | – | – | – | log LC50 | > -4 log M
CC(C)C12OC1C1OC13C1(C)CCC4=C(COC4=O)C1CC1OC13C2OC(=O)CCCOC1OC(CO)C(O)C(O)C1O (stereo not shown) | A253 | cell growth or viability, XTT | – | 47 h | – | IC50 | 0.54 µM
CCOc1ccccc1-n1c(CN2CCNCC2)nc2cc(OC)ccc2c1=O | PANC-1 | cell growth or viability, ATP luminescence | – | 72 h | – | IC50 | 8.7 µM

A few entries again:
Structure (SMILES) | target or system | assay | system | setting | scale | quantity | value
CC(C)(C)C(=O)OCOP(=O)(OCOC(=O)C(C)(C)C)C1CCCN(O)C1=O (stereo not shown) | SN12C | – | – | – | – | log LC50 | > -4 log M
CC(C)C12OC1C1OC13C1(C)CCC4=C(COC4=O)C1CC1OC13C2OC(=O)CCCOC1OC(CO)C(O)C(O)C1O (stereo not shown) | A253 | cell growth or viability, XTT | – | 47 h | – | IC50 | 0.54 µM
